Measurements of several laboratories.
Parts stem from different laboratories: compare values within a part only. Positions count from the first letter of the parent shown.

Set 1 — method: aptamer microarray, sandwich; molecule type: DNA with 2'F-ANA; sample: in vitro; concentration: 200 nM; added: Cy3 exosite-II aptamer, 400 nM; reading: higher = stronger binding; quantity: mean fluorescence intensity; strand: GGTTGGTGTGGTTGG
Target: Prothrombin, mature alpha-thrombin (F2, Homo sapiens, UniProt P00734)
Notes: whole 15-mer aptamer, many near background
2'F-ANA at 1 3 8 9 10 11 12: 101 a.u.
2'F-ANA at 1 3 4 5 9 10 11 12 13 14: 51.6 a.u.
2'F-ANA at 2 3 4 7 10 11 12 13 14 15: 206 a.u.
2'F-ANA at 4 6 7 9 14 15: 73 a.u.
2'F-ANA at 1 2 3 4 5 6 8: 65.6 a.u.
2'F-ANA at 1 2 6 8 10 11 12 14: 48.1 a.u.
2'F-ANA at 1 2 9 11 14 15: 51.7 a.u.
2'F-ANA at 2 9 12 15: 679 a.u.
2'F-ANA at 1 2 3 10 11 14 15: 89.8 a.u.
2'F-ANA at 1 2 6 7 13 15: 110 a.u.
2'F-ANA at 1 3 4 5 9 12 14 15: 46.5 a.u.
2'F-ANA at 2 3 5 10 11 12 13: 68.9 a.u.
2'F-ANA at 1 4 5 7 10: 47.8 a.u.
2'F-ANA at 3 4 5 7 15: 110 a.u.
2'F-ANA at 1 6 7 11 12: 276 a.u.
2'F-ANA at 2 6 7 8 10 11 12 14 15: 87.8 a.u.
2'F-ANA at 2 3 4 7 8 10 12 13 15: 300 a.u.
2'F-ANA at 2 3 5 6 8 9 12 13 14: 53.2 a.u.
2'F-ANA at 1 2 3 4 7 11 12 14 15: 259 a.u.
2'F-ANA at 1 3 4 7 8 10 11 13: 83.3 a.u.

Set 2 — target: JUND, bZIP domain (human); method: DHFR protein complementation; sample: yeast; reference: wild-type JUN-FOS pair; reading: higher = stronger binding; quantity: binding fitness
Notes: single substitutions, most at no-binding floor
Parent: JUN, bZIP domain (human); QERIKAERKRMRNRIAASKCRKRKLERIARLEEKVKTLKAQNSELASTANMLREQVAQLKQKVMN; partner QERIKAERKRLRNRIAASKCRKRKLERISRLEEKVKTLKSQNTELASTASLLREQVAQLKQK
S43Q: -0.459 natural log
A40G: -1.12 natural log
A57S: -0.772 natural log
E33W: -1.01 natural log
S47L: -0.638 natural log
K34R: -0.557 natural log
K34H: -0.501 natural log
E33N: -0.875 natural log
A46M: -0.573 natural log
L52Y: -1.18 natural log
E33M: -0.859 natural log
A57R: -0.843 natural log
K36E: -0.733 natural log
A57M: -0.888 natural log
R30Y: -0.642 natural log
E54H: -0.975 natural log
T48Y: -0.923 natural log
T48H: -0.907 natural log
A40M: -0.895 natural log
A46T: -0.497 natural log
A57E: -0.486 natural log
S47I: -0.674 natural log
K39S: -0.574 natural log
E33D: -0.741 natural log
R53K: -0.851 natural log

Set 3 — method: DHFR PCA, deep sequencing; sample: yeast; added: (+)-ABA 17 µM; reference: wild-type fitted maximum; reading: higher = stronger binding; quantity: relative binding score
Target: ABI1, truncated, D143A, DHFR fusion (Arabidopsis thaliana)
Notes: methotrexate growth selection, single substitutions
Parent: PYL1, truncated, DHFR fusion (Arabidopsis thaliana); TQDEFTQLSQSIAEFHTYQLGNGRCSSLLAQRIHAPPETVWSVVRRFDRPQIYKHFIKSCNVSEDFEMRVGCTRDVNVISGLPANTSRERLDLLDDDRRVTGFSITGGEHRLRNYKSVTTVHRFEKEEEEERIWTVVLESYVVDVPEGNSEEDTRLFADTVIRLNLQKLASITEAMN; partner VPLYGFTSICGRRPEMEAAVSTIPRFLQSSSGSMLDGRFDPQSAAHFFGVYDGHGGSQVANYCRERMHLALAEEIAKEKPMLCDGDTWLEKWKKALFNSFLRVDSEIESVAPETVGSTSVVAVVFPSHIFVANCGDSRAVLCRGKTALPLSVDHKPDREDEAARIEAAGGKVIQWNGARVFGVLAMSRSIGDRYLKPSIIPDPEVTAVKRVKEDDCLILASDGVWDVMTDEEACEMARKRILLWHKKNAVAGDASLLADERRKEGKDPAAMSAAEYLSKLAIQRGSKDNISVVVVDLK
L20F: 71.4%
H55R: 93.3%
Q2W: 75.1%
T120R: -3.38%
E139Y: 81.9%
T86E: 56.7%
P36F: 42.5%
V118C: 85.2%
P83N: -5.26%
Y53L: -7.31%

Set 4 — target: CCND3, cyclin fold, Cln2 fusion (human); method: yeast growth competition, sequencing; sample: yeast; notes: weak parent motif; reference: not given; reading: higher = stronger binding; quantity: normalised enrichment score
Parent: CDC6 docking peptide (human); TLKGRRLVFDNQL
G4I: 0.228
D10M: 0.118
L7Y: 0.107
V8C: 0.155
F9Y: 0.0815
K3Y: 0.157
K3E: 0.119
N11F: 0.176
R6E: 0.06
L7Q: 0.173
L13T: 0.00871
K3T: 0.159
Q12C: 0.0622
R6T: 0.126
L13K: 0.0526
K3F: 0.0331
K3H: 0.0456
R6C: 0.152
L7I: 0.119
R6A: 0.0552
R5P: 0.0293
L7T: 0.0729
R5W: 0.228
K3W: 0.0299

Set 5 — method: RNA Bind-n-Seq; molecule type: RNA; sample: in vitro; concentration: 365 nM; reference: no-protein control; reading: higher = stronger binding; quantity: RBNS enrichment (R)
Target: RNA binding protein fox-1 homolog 2, RRM domain, GST-SBP tag (RBFOX2, Homo sapiens, UniProt O43251-10, residues 100-194)
Notes: natural RNA segment, single round, ends assumed
Shared flanks, not repeated: GGGAGUUCUACAGUCCGACGAUC … UGGAAUUCUCGGGUGCCAA
Residues (chain): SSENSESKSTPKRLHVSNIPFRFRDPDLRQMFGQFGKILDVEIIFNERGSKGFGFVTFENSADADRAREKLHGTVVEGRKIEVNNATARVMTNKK
UCUUCCCACAUCAGAGAAUUUUUUUUUAAACCAAAAUGGGCAGAAUAGCAUUUUGUAUGUUAGAGACCAUUCUUUUCUAGUCCUUCCAAACAUUCCUGUGUCACUUAAGA: 0.865
AGAGGAAUCAAACUGGUUCCCUUUCUUUCUGGGAACCCCUGCCAUGUUACUCUAAAGACCCCAGCAACCCAGAGAGAGCCCUGCUUCCAUCUUCCCAGGGCAGGACCACA: 0.696
CCGUACAAUAUUAAUGCAUGCGAUUCCAUAAUGCUUAGUGAACUGUAUGAAUAUUACUCAAAGUUAUGUUAGUCUUUUUUUCCGACUUGGUUCUUGUCAGCUAGGUUUAA: 9.03
GCACCAGACUUGGGGGGUGUAAUCUCCGGCAACUUGCAUGCCCUCUGAAAGAAGGGUUUUCUGUGCUGUGAAAUGCAUAGAACUUACACUUUGCCGUGCACGACUGUUCC: 0.612
CUCGCCCACCGUUACCCUCUUCUUGUAUCUGAAUAUCAGAAACUAGAAAGUCCAACAGUGACACUCCCCCUGCUCCAAGGUGGGGACUUAAGUUUGUGAGGUACAAGAAU: 0.316
GGAGACCUAGGUUUCAGCCCCUCUCUACUGUCAGCGAGCUGUGCAACGUGGGCAAGUCAUUGUCCUCUGAGCUGCAGUUUCCUCAUCUGUCACAUCGCUACAGACAAGAC: 0.2
GAGGGGGUUGGGCUGGAUUUCUUUGUAGAUGUGGACCACCAAGGGGUUGUUGAAAACUAAUUGUAUUAAAUGUCUUUUGAUAAGCCUUCUGCUCACACUUUUGUGACUGU: 0.443
GCUUAUCUGGGUGGGUGGGGAUGCCUGUUUACACUAGCGCUGACUCCCAACGGUGACGGCUCCCUUCCCCACUCCAUGGCGCCAGCCUCCUCCCCCGCUCCCCAACUUCU: 0.488
UGGUUCCUCUUUCUCCAUCACUGGCUCCUUCUUUGAUGCUCUCUCCCCAUCUCAGGGUCAGACCAGCCUUCUCUCUUUACCUUCUUUAACCUGUCUCCCCUCCCUGGUUG: 0.821
UCCCAGCUCGCCCAUGUAUGUCGACUGAUACCGCUGCUACAUCAGACUCUAGAAAAAAGGGCUGAGGGGAAGCAAGACGUAAAGAGUUUUCAUCCUGUAUCACAGUGUUU: 0.657
UACCAACAAAACUCCAGGUUGAGACUCUCUAGUCUUGCCAGGGCCCACUGAGAGCUCCCAGACUCAGUACAUCUCUCCCUCGUUUAAAACACCUUUUUCUAAACACUUUC: 0.984
UUGUGGGCAGAGCUAAUCCAAGUUACUGUUCUCUGUUCAAAUGAAGCAGCUUCAGGAGAAAAAGAGCAAUUACUUUUGAAUUCUCCAAUAAAUCUGGACAAUGCCGUUAG: 0.265

Set 6 — method: universal PBM; molecule type: double-stranded DNA, one strand shown; sample: in vitro; concentration: 600 nM; reading: higher = stronger binding; quantity: E-score
Target: Sal-like protein 4, full length isoform A (SALL4, Homo sapiens, UniProt Q9UJQ4, residues 1-1053)
Chain of UniProt Q9UJQ4 (whole entry, looked up): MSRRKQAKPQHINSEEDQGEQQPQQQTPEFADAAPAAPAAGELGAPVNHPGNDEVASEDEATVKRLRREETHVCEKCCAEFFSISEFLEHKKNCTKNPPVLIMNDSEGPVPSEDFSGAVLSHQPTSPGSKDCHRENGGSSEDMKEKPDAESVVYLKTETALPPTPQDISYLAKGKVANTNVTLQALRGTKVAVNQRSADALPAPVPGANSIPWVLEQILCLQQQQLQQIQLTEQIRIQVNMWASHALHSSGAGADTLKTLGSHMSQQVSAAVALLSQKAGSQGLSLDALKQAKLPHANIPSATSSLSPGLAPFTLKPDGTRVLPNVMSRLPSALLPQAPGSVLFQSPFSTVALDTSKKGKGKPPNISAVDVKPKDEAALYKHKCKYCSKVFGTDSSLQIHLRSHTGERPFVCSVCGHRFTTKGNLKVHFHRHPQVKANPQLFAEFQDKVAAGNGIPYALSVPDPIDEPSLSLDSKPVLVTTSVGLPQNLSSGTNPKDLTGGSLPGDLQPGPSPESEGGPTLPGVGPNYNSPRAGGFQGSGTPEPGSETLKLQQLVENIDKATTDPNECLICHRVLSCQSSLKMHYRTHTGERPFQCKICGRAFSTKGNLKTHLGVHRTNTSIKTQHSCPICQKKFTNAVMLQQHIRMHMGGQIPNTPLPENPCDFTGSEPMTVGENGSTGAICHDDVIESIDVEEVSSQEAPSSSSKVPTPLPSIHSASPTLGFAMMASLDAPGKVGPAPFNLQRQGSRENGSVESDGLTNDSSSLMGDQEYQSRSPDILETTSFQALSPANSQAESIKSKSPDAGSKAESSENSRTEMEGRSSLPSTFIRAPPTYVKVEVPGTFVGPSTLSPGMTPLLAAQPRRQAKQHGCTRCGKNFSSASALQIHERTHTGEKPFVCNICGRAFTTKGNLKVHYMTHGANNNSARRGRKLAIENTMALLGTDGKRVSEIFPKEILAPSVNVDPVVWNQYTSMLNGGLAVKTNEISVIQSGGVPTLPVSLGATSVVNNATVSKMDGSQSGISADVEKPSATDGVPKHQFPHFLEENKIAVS
Notes: 8-mer, flanks averaged, mean of replicates
AATAAGGG: 0.152
AGCAAAGA: 0.042
ACTCAGGG: -0.233
CACAAAGG: -0.029
GAGAATCA: 0.000425
AAAGCCCG: -0.135
ATGTGTAG: 0.133
CCCCGCGA: -0.265
GAAAACGA: -0.0163
AAAATGTT: 0.315
ACAGTGAC: -0.0126
CGTATTCA: 0.232
ACGACGCA: -0.0364
ACGCACCT: -0.134
CAGTGATC: -0.0947
CAACGCAA: 0.101

Further values, each from its own experiment
PhoQ, residues 284 288 289 292 302 303 NLGVHL
fold induction (PhoP, residues 12 14 15 18 19 QQAYL (Escherichia coli, UniProt P23836); Sort-seq, measured: YFP reporter; E. coli; PhoQ-PhoP variant library, added: 10 µM Mg2+; reference: high Mg2+ state, higher = stronger signaling): 7.18

A few entries again (set 1):
2'F-ANA at 1 2 9 11 14 15: 51.7 a.u.
2'F-ANA at 2 9 12 15: 679 a.u.
2'F-ANA at 1 2 3 10 11 14 15: 89.8 a.u.
2'F-ANA at 1 2 6 7 13 15: 110 a.u.
2'F-ANA at 1 3 4 5 9 12 14 15: 46.5 a.u.
2'F-ANA at 2 3 5 10 11 12 13: 68.9 a.u.
2'F-ANA at 1 4 5 7 10: 47.8 a.u.
2'F-ANA at 3 4 5 7 15: 110 a.u.
2'F-ANA at 1 6 7 11 12: 276 a.u.
2'F-ANA at 2 6 7 8 10 11 12 14 15: 87.8 a.u.
2'F-ANA at 2 3 4 7 8 10 12 13 15: 300 a.u.
2'F-ANA at 2 3 5 6 8 9 12 13 14: 53.2 a.u.
2'F-ANA at 1 2 3 4 7 11 12 14 15: 259 a.u.
